# Measurements collected from several papers.
# Every numbered part comes from another study and shows a few of its results, in no order.

# Study 1
# Target: Interferon regulatory factor 5, full length, phosphomimetic (IRF5, Homo sapiens, UniProt Q13568-2, residues 1-514, S451D/S453D/S456D/S462D)
# Technique: protein-binding microarray
# Form: double-stranded DNA, one strand shown
# Sample: in vitro
# Concentration: 940 nM top
# Notes: 60-bp whole probe
# Together with: salmon DNA 0.4 mg/ml
# Baseline: random background probes
# Direction: higher = stronger binding
# Constant ends, left off below: GCCTAGCAC … GTCTTGATTCGCTTGACGCTGCTG
Sequence,fitted relative affinity
TCAATTCTCCACTTGTGACTGTGCTAG,0.326 z-score
TTATAACTGAGTCTCGATTAGTGCTAG,2.71 z-score
AGCTCCCTTTCTCTCTGTGAGTGCTAG,1.33 z-score
GACGGAATCCTACTGCTGACGTGCTAG,-0.739 z-score
CTCTGCTTGTGTCTGGGCTTGTGCTAG,-0.215 z-score
GACGATATCGGGACTGGATACGTGCTA,-0.126 z-score
TTAGGTTTCCGTTTCGGTTAGTGCTAG,5.96 z-score
TTGGTTTTCATTATTGCTTCGTGCTAG,2.74 z-score
TTAGGTCTCGGTCTCGATTAGTGCTAG,5.45 z-score
GACGATCTCAGTTTCGAGATGTGCTAG,3.63 z-score
TTAGGACTGGACCATCGGTTAGTGCTA,-0.759 z-score
GACGGACTGGGGACTGGGTACGTGCTA,-0.64 z-score
GAGGGTTTCGGACTGGGGACGTGCTAG,4.47 z-score
TCACATTTCCTTTACATACTGTGCTAG,1.7 z-score
GATGGTCTCCTTCTCCTGACGTGCTAG,0.47 z-score
TTAAATTTCAGTATCGATTAGTGCTAG,6.66 z-score
TTAGGTTTCATACTGCTTTAGTGCTAG,4.19 z-score
GACGAACTCAGTCTCGAGACGTGCTAG,0.684 z-score
TTAGGTATCGGGAATGGGTTAGTGCTA,4.42 z-score
ACCATTGTGGTTTTCATTATGTGCTAG,0.393 z-score
TCATTTTCACTTTTCCTACTGTGCTAG,3.5 z-score
GACGGACTGGTCTATCGGGACGTGCTA,-0.161 z-score
TTAGGTATCCTTCTCCTGTAGTGCTAG,0.871 z-score
TCATATATACACTTATGACTGTGCTAG,0.629 z-score
TTCAGTTTTCCTCTGTCATTGTGCTAG,1.5 z-score

# Study 2
# Target: Histone acetyltransferase KAT6A, both winged helices, GST fusion (KAT6A, Homo sapiens, UniProt Q92794, residues 1-181)
# Technique: protein binding microarray
# Form: double-stranded DNA, one strand shown
# Sample: in vitro
# Concentration: not given
# Notes: 8-mer, flanks averaged, mean of 2 arrays, mostly near background
# Baseline: not given
# Direction: higher = stronger binding
# Construct (chain): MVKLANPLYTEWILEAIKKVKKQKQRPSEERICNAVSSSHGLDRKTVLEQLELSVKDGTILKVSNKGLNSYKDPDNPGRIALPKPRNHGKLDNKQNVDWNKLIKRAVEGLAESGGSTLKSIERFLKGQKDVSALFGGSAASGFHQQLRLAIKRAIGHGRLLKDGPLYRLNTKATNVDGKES
Sequence,E-score
GAAGAGTA,0.0652
AAACTCTG,-0.101
TACCCTCA,-0.155
CCTGGCCA,-0.0805
GACTTTCA,-0.0641
AAAGGCAT,-0.174
AGACCGGG,0.0853
CAAGCGAC,0.159
GAGCCCTA,-0.167
CGACCCAA,-0.128
ATCGTGTG,-0.0954
CAGGTCCC,0.0469
AGGAGAGG,-0.232
CCAACCGC,0.18
AATAACAC,0.102
ACTATTTC,-0.0232
GGCTCTTA,-0.0767
TCCTAGGA,-0.105
CCCAACAG,-0.235

# Study 3
# Target: Ras GTPase-activating protein-binding protein 1, C-terminal RGG region (G3BP1, Homo sapiens, UniProt Q13283)
# UniProt Q13283, sequence (whole entry, looked up): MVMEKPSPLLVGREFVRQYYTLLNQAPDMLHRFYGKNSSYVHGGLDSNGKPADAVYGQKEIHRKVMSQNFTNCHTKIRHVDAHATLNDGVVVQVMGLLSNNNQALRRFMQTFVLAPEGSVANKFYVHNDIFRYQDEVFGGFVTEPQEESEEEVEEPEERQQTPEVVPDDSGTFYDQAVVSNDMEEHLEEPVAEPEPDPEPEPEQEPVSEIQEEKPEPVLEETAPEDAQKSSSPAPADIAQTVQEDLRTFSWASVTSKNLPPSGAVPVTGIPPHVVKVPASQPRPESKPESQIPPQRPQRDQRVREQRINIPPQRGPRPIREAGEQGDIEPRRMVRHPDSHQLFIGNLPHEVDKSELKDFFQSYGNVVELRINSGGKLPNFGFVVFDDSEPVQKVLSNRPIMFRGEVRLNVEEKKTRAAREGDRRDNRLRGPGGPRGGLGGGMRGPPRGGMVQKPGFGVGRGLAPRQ
# Technique: RNA Bind-n-Seq
# Form: RNA
# Sample: in vitro
# Concentration: 1 µM
# Notes: whole 134-nt RNA, ends assumed
# Together with: 150 mM KCl
# Baseline: input library
# Direction: higher = stronger binding
# Constant ends, left off below: GGGAGUUCUACAGUCCGACGAUC … UGGAAUUCUCGGGUGUCAAGG
Sequence,log2 enrichment
ACCAUGCAGGUGGGCAUCUUUGGGAAGUGGGGCAAGGGGGGGAUAGGGAGGGGGGUAACACUUUGGGAACAGAUGGUCCCAGGUCGUUUC,2.27
AUCAUGCAGGUGGGCAUCUUUGGGAAGUGGGGCAAGGGGGGGAUAGGGAGGGGGGUAACACUUUGGGAACAGGUGGUCCCAGGUCGUUUC,-1.06
UCCUGUGCUACACAUCGUAUGUACCGAAUCGGGUUUUUUGGGGUUUUUUGGGUUUUUUGGAAAGUAUUAUGUUACGCCGUUCGGAUCUGC,-0.136
CACAGACAACACGCACCCACACAGACACAGAGGGAAGGGGUUGGGAUGGGGACAGGGUGCACAUCAGGGCGGGGUAGGACCCCAGCCCCU,-0.334
UGGGAGGUGGAUUUUGAUUAUUUUUUUAGCUCAUUUCCAGGGGUGGGAAUUUUUUUUUAAUAUGUGUCAUGAAUAAAGUUGUUUUUGAAA,3.87
ACCAUGCAGGUGGGCAUCUUUGGGAAGUGGGGCAAGGGGGGGAUCGGGAGGGGGGUAACACUUUGGGAACAGGUGGUCCCAGGUCGUUUC,1.69
AAGUCCUGUGCUACACAUCGUAUGUACCGAAUCGGGAAAGGGUUUGGGUUUUUGGGAAAGUAUUAUGUUACGCCGUUCGGAUCUGCACUU,1.19
UGGCCCUGGUGGCAUGCGGGGAGGAAGAGGUGGCCUCAUGGAUCGUGGUGGUCCCGGUGGAAUGUUCAGAGGUGGCCGUGGUCGAGACAG,3.65
GUCCUGUGCUACACAUCGUAUGUACCGAAUCGGGGUUUUUGGGGAAAAAGGGGUGGGGAAAGUAUUAUGUUACGCCGUUCGGAUCUGCAC,2
AAGUCCUGUGCUACACAUCGUAUGUACCGAAUCGGGCCCCGGCCCCGGGGCCCCGGGAAAGUAUUAUGUUACGCCGUUCGGAUCUGCACU,-2.37
CAAGUCCUGUGCUACACAUCGUAUGUACCGAAUCGGGGAAAGGAAAGGGGAAAGGAAAGUAUUAUGUUACGCCGUUCGGAUCUGCACUUC,-1.24
GUCCUGUGCUACACAUCGUAUGUACCGAAUCGGGUUUUUUUGGGUUUUUGGGAAAGGGAAAGUAUUAUGUUACGCCGUUCGGAUCUGCAC,-0.326
CCCGAGCCGGAGAGGGAGCGCGAGCCGCGCCGGCCCCGGUCGGGCCUCCGAAACCAUGAACUUUCUGCUGUCUUGGGUGCAUUGGAGCCU,-0.327
UGUGCUACACAUCGUAUGUACCGAAUCGGGAAAAAAAGGGGAAAAAAAGGGGAAAAAAAGGGAAAGUAUUAUGUUACGCCGUUCGGAUCU,-0.674

# Study 4
# Target: RNA binding protein fox-1 homolog 2, RRM domain, GST-SBP tag (RBFOX2, Homo sapiens, UniProt O43251-10, residues 100-194)
# Technique: RNA Bind-n-Seq
# Form: RNA
# Sample: in vitro
# Concentration: 365 nM
# Notes: natural RNA segment, single round, ends assumed
# Baseline: no-protein control
# Direction: higher = stronger binding
# Constant ends, left off below: GGGAGUUCUACAGUCCGACGAUC … UGGAAUUCUCGGGUGCCAA
# Construct (chain): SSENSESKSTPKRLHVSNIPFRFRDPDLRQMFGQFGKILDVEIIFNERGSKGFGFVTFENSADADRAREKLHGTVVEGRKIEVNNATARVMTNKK
Sequence,RBNS enrichment (R)
UGCGGUGUAGAGGAUGCUCUUGGCCGGCUGGAGCAAGACCUGGCUCCCACCAGAGGGACGUGUGUGUGCCUGCAGACGGCCCGGGAGCUGUGUGUCUCCGCCAGAGUCAC,0.311
GUUUGAAUCUGAAAUUUAACACUUAUUUAUGUAAAACACUUUAUUUAAGAUAUUUUCUAAUGAUUUUAAUUUUAGAGAGUACCUUUUCAUUCUGUGUGUUACAGAGAAGU,0.54
GACUGAGUUAUGGGAGAAGGGGACAUAUUUGUGGCCAAAAUGAUACUAACCAAAGGGGCUUCCUUGUCAGGGCCUGGUGGAGUUGGUGGGUCAUCGGGGCUCACUGCCUC,0.695
CCCCACCUUCCCUGUCCUGAUGCCGACAGCUUAGGGAAGGGCAGUGAACUUGCAUAUGGGGCUUAGCCUUCUAGUCACAGCCUCUAUAUUUGAUGCUAGAAAACACAUAU,0.498
UUGCUUUUGACUCUAAGCAUAACAUGACAAACCUCUAAGGAUGUAAUUAAAUUUAUUUUAAAACUUUUAAACUUGUACAUUCCUUUUAAUUAUUUUCUUAUUUCUGCUUC,1
CCAGCUCUCCCUCUGGCCCUGCCUUCUUCGGGGAACUCCUGGAAAUAUCAGUUACUCAGCCCUGGGCCCCACCACCUAGGCCACUCCUCCAAAGGAAGUCUAGGAGCUGG,0.366
UGAUGGCUUGUGUACAGACAAGCAUUUAUCCAGGUUGCGUUAUCCAAACUGAUUUGUUAAAGCUCCAGGUCACGUUCUUACACUAAGAAAAUCAUUCAGUAAACAUGAGA,0.614
UAACCAGUUUUUAUAUUGACCUGCAGUGUAAAAAGCACAUUUAAUUAUAAACAAUAUAUUCAAAAUGGGCAAAUUUUAUUUUCAAAUGCAGUGUAGAGCUAGAUUAAAAG,0.416
CUCCUGCCCAUGAGGAUCACAUCCUGUCUCUCCUUGCUUCCAUCUCUCAUCACUGCCCUUGGACUUCCGCCUUGACUGUCCAUGAAAGACAGAAAUGGGUUGGGUAGUUG,0.42
UGUACAGUCUCUGUGGCUUGGUUGAGUAUGCUCUUUCCUGUGCCAGGUCUUGCUCUGGCUGUUCGCUACUGGCUGAUAAUAACAAGGACCCUGUGUGUGUGUGAAUGAGC,1.43
CAUCCCCACCCUUCUUGCCAAAGGACCUCUUUUCCCCUAUCCAGAGACCACCCCAGGUGGCAUUCUCUCCCACCUUCUCCUUUGUCCCCCAUCCCCUGUCUCUGUCUUCC,1.3
AGGCAAAUGGAAUUGCUUUUCCAUAACAUCCAAAUUGUAAUGUGGUUGCUGCUGAAGGAGGAGGCAGCAGCGAGGUCCUGCGGUACCCAUGGGGUGAUGCUACUUCUGCA,1.15

# Repeated from above (study 3):
Sequence,log2 enrichment
AAGUCCUGUGCUACACAUCGUAUGUACCGAAUCGGGAAAGGGUUUGGGUUUUUGGGAAAGUAUUAUGUUACGCCGUUCGGAUCUGCACUU,1.19
ACCAUGCAGGUGGGCAUCUUUGGGAAGUGGGGCAAGGGGGGGAUAGGGAGGGGGGUAACACUUUGGGAACAGAUGGUCCCAGGUCGUUUC,2.27
CCCGAGCCGGAGAGGGAGCGCGAGCCGCGCCGGCCCCGGUCGGGCCUCCGAAACCAUGAACUUUCUGCUGUCUUGGGUGCAUUGGAGCCU,-0.327
CACAGACAACACGCACCCACACAGACACAGAGGGAAGGGGUUGGGAUGGGGACAGGGUGCACAUCAGGGCGGGGUAGGACCCCAGCCCCU,-0.334
UGUGCUACACAUCGUAUGUACCGAAUCGGGAAAAAAAGGGGAAAAAAAGGGGAAAAAAAGGGAAAGUAUUAUGUUACGCCGUUCGGAUCU,-0.674
AAGUCCUGUGCUACACAUCGUAUGUACCGAAUCGGGCCCCGGCCCCGGGGCCCCGGGAAAGUAUUAUGUUACGCCGUUCGGAUCUGCACU,-2.37
CAAGUCCUGUGCUACACAUCGUAUGUACCGAAUCGGGGAAAGGAAAGGGGAAAGGAAAGUAUUAUGUUACGCCGUUCGGAUCUGCACUUC,-1.24
UGGGAGGUGGAUUUUGAUUAUUUUUUUAGCUCAUUUCCAGGGGUGGGAAUUUUUUUUUAAUAUGUGUCAUGAAUAAAGUUGUUUUUGAAA,3.87
ACCAUGCAGGUGGGCAUCUUUGGGAAGUGGGGCAAGGGGGGGAUCGGGAGGGGGGUAACACUUUGGGAACAGGUGGUCCCAGGUCGUUUC,1.69
UCCUGUGCUACACAUCGUAUGUACCGAAUCGGGUUUUUUGGGGUUUUUUGGGUUUUUUGGAAAGUAUUAUGUUACGCCGUUCGGAUCUGC,-0.136
GUCCUGUGCUACACAUCGUAUGUACCGAAUCGGGUUUUUUUGGGUUUUUGGGAAAGGGAAAGUAUUAUGUUACGCCGUUCGGAUCUGCAC,-0.326
